Measurements gathered from unrelated publications.
Parts stem from different laboratories: compare values within a part only.

Sample 1
Target: RNA binding protein fox-1 homolog 2, RRM domain, GST-SBP tag (RBFOX2, Homo sapiens, UniProt O43251-10, residues 100-194)
Technique: RNA Bind-n-Seq
Molecule type: RNA
Sample: in vitro
Tested at: 365 nM
Setting: natural RNA segment, single round, ends assumed
Baseline: no-protein control
Reading: higher = stronger binding
Construct (chain): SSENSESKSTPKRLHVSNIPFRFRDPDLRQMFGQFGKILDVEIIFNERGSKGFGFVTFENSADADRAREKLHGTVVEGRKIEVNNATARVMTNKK
| Sequence | RBNS enrichment (R) |
| --- | --- |
| GGGAGUUCUACAGUCCGACGAUCAGGCACAACAGUCAUUACAAAUCUUUAUUCUGUUCACUUUGAUGAAAAGUACUGGAAAGAUCCAGACAUGUUCUAUCCUGAGCGAUUUCUGGACAGCAAUGGAUAUUUUAUGGAAUUCUCGGGUGCCAA | 0.376 |
| GGGAGUUCUACAGUCCGACGAUCGGGCCUUGAGCACUGGGGAGCUCUCAAGGUAUACUCUUAGAGUAACUAUAUACCUGUAACUGGACCUGGAGAUGAAGAGAUACCCUCAUUGCUCUGUGUCUGACCCAAUAUGGAAUUCUCGGGUGCCAA | 0.527 |
| GGGAGUUCUACAGUCCGACGAUCGUGCAUAGUAAGACUGCCUGGCUAAAUUAGGCCUCACUGGCGAUAGAACAGACUUACUGAAGUUUAGGUAUAGUGAGCCACACUCCACUGCCAAGGUAGAGAACUGUGAGUGGAAUUCUCGGGUGCCAA | 0.352 |
| GGGAGUUCUACAGUCCGACGAUCGAGCGAAGACUGCUCCUGGUGGCCUGUGCAUAGGGAAGCGGCAGCAUCGGAUGUCAGCCCCCUGCGGCCCCAGCUGGAGAUGGAUAUGAGACUAGUCAAGAUGUGAAUGCUGGAAUUCUCGGGUGCCAA | 1.65 |

Sample 2
Target: Sal-like protein 4, full length isoform A (SALL4, Homo sapiens, UniProt Q9UJQ4, residues 1-1053)
Sequence of UniProt Q9UJQ4 (whole entry, looked up): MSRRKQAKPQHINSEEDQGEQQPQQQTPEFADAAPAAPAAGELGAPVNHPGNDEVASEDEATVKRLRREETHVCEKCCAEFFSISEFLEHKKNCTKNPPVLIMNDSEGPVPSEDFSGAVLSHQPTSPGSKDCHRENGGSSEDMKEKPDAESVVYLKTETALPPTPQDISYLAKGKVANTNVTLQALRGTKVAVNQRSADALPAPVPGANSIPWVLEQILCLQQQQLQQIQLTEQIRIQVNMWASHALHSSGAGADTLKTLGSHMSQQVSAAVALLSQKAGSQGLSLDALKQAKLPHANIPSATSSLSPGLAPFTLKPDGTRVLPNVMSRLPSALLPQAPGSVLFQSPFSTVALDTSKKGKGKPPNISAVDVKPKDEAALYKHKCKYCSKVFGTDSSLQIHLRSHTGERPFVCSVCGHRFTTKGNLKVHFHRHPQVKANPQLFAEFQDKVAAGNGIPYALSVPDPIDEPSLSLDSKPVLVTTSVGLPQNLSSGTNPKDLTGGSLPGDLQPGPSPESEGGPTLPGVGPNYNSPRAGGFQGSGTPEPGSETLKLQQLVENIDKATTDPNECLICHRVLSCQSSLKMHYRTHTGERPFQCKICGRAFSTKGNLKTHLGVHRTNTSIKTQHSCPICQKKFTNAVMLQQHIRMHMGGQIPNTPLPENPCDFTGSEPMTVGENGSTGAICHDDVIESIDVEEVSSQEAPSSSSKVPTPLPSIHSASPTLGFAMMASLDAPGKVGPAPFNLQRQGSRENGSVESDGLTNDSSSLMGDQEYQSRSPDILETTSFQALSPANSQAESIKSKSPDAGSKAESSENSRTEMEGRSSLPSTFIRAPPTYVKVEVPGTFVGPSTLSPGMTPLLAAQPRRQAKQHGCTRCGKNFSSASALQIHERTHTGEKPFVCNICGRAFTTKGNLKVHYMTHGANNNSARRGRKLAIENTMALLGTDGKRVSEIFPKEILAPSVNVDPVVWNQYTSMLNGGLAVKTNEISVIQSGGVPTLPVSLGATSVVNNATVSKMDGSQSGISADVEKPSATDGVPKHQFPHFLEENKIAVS
Technique: universal PBM
Molecule type: double-stranded DNA, one strand shown
Sample: in vitro
Tested at: 600 nM
Setting: 8-mer, flanks averaged, mean of replicates
Reading: higher = stronger binding
| Sequence | E-score |
| --- | --- |
| GTGTTACA | 0.122 |
| ATTCAATA | 0.375 |
| AGGTGAGA | 0.00316 |
| AAATAGTT | 0.273 |

Sample 3
Target: Interferon regulatory factor 5, full length, phosphomimetic (IRF5, Homo sapiens, UniProt Q13568-2, residues 1-514, S451D/S453D/S456D/S462D)
Technique: protein-binding microarray
Molecule type: double-stranded DNA, one strand shown
Sample: in vitro
Tested at: 940 nM top
Setting: 60-bp whole probe
Added: salmon DNA 0.4 mg/ml
Baseline: random background probes
Reading: higher = stronger binding
| Sequence | fitted relative affinity |
| --- | --- |
| GCCTAGCACAAATGTTTTGTTTTTCATTAGTGCTAGGTCTTGATTCGCTTGACGCTGCTG | 1.24 z-score |
| GCCTAGCACTTAGGTACCGGGACTGGGTTAGTGCTAGTCTTGATTCGCTTGACGCTGCTG | -0.015 z-score |
| GCCTAGCACTTAGAATTCAGACTGGATTAGTGCTAGGTCTTGATTCGCTTGACGCTGCTG | -0.874 z-score |

Single results of other studies
| Substance | target | test | system | setting | how to read | quantity | result |
| --- | --- | --- | --- | --- | --- | --- | --- |
| PhoQ, residues 284 288 289 292 302 303 SIHMAM | PhoP, residues 12 14 15 18 19 IQSYL (Escherichia coli, UniProt P23836) | Sort-seq, measured: YFP reporter | E. coli | PhoQ-PhoP variant library, added: 10 µM Mg2+ | baseline: high Mg2+ state, higher = stronger signaling | fold induction | 40 |

Some of these lines once more (sample 1):
| Sequence | RBNS enrichment (R) |
| --- | --- |
| GGGAGUUCUACAGUCCGACGAUCGGGCCUUGAGCACUGGGGAGCUCUCAAGGUAUACUCUUAGAGUAACUAUAUACCUGUAACUGGACCUGGAGAUGAAGAGAUACCCUCAUUGCUCUGUGUCUGACCCAAUAUGGAAUUCUCGGGUGCCAA | 0.527 |
